Assay results of several laboratories.
Compare with care: the assays were run in different laboratories. “And” joins repeats or separate records; there may be more than shown. ± gives the spread as reported.
Fibroin-modulator-binding protein-1: Fibroin-modulator-binding protein-1 99-193 (Bombyx mori, UniProt Q5FBS0)
SPT15/TOA1/TOA2/SUA7 1-240; 1-286; 1-122; 1-345: SPT15/TOA1/TOA2/SUA7 1-240; 1-286; 1-122; 1-345 (Saccharomyces cerevisiae)
allR full length assumed: allR full length assumed (Escherichia coli, UniProt P0ACN4)
UniProt Q64663, sequence (whole entry, unmodified, looked up): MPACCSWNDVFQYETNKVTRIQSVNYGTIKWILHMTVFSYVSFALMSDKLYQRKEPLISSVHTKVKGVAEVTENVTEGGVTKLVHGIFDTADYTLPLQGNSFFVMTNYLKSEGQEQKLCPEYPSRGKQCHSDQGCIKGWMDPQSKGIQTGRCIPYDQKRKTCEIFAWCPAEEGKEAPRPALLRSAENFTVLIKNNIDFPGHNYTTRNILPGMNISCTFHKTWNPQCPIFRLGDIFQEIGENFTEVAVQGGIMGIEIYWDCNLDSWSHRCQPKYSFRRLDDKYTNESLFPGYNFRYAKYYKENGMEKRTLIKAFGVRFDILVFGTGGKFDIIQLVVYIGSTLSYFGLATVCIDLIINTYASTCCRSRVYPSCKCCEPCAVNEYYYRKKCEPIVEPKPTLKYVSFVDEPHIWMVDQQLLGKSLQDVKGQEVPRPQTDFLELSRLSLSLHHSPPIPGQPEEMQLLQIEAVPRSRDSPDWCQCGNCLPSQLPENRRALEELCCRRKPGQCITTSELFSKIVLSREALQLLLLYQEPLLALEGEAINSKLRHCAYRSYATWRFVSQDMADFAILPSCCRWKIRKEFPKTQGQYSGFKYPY
UniProt P0ACN4, sequence (whole entry, looked up): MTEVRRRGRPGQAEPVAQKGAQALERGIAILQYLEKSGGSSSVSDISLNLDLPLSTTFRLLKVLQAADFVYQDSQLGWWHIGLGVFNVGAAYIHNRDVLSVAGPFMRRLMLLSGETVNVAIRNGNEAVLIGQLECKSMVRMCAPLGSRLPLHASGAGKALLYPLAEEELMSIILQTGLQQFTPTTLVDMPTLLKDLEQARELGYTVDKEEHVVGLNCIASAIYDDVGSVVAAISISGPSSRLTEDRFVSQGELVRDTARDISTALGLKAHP
UniProt Q8IUX4, sequence (whole entry, looked up): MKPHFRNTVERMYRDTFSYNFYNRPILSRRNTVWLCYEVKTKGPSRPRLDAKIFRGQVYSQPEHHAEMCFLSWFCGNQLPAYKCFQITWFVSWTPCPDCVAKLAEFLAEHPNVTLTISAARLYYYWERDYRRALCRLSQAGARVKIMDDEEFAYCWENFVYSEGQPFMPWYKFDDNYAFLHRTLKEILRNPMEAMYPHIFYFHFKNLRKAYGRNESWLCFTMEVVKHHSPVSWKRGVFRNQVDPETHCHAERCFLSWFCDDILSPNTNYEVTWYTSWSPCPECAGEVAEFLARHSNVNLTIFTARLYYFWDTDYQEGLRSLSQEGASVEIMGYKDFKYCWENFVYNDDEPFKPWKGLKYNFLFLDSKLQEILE
UniProt P46063, sequence (whole entry, unmodified, looked up): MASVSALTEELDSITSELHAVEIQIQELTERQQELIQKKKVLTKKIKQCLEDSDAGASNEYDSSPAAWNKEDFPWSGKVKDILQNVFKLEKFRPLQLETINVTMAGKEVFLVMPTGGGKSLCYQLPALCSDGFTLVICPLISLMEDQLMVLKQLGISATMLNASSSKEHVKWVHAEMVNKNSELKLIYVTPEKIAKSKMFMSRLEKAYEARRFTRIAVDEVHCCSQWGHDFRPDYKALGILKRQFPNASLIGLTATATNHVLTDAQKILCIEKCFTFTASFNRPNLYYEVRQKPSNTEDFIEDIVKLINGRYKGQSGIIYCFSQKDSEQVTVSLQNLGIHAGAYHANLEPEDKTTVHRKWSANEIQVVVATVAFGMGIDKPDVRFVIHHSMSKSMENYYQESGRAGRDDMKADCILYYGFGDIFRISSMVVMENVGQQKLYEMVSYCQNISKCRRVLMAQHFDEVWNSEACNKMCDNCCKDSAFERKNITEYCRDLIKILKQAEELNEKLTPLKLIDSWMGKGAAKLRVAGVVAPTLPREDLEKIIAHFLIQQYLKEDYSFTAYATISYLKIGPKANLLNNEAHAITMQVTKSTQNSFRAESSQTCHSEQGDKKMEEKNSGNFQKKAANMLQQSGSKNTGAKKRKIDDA
UniProt P19880, sequence (whole entry, looked up): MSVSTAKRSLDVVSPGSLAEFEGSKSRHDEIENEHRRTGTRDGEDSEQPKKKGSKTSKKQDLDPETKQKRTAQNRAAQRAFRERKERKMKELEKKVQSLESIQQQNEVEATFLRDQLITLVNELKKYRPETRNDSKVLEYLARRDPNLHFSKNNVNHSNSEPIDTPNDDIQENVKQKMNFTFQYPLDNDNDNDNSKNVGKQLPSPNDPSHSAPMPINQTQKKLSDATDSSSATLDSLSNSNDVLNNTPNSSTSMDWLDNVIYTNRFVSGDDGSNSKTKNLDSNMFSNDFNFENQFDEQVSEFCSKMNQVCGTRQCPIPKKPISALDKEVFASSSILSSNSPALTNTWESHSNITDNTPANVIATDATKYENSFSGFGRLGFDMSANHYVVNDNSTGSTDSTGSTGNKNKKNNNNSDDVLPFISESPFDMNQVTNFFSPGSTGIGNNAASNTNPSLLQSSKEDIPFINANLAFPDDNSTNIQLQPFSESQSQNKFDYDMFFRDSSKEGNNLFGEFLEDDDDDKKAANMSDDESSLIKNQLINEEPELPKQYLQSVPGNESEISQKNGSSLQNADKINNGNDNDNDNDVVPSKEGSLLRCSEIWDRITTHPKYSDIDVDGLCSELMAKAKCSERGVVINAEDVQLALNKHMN
UniProt Q01844, sequence (whole entry, looked up): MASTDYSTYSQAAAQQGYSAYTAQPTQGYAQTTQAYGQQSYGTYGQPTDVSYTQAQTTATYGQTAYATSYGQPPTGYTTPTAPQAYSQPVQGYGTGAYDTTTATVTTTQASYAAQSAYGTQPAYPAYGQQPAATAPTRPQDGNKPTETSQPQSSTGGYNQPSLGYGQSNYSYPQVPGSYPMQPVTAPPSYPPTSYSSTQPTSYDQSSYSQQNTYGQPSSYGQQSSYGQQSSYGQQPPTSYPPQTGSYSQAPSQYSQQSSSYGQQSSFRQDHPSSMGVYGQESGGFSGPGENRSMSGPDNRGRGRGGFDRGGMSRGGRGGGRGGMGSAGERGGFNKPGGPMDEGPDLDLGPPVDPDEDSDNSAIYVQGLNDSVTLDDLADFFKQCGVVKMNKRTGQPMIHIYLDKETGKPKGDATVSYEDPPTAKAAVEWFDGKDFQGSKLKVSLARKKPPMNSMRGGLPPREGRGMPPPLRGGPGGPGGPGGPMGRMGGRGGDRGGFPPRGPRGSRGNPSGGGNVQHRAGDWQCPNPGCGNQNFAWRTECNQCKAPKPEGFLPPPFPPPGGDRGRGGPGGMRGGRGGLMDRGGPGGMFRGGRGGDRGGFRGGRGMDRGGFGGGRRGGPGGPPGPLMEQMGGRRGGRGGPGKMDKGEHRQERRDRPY

| Substance | target or system | assay | test system | conditions | scale | endpoint | value |
| --- | --- | --- | --- | --- | --- | --- | --- |
| DNA 1 GGATCTCGACGCTCTCCCTT / DNA 2 GTCGAGATCC (dsDNA; 3' 10-nt overhang, blunt end) | RECQL 49-616 D230A/R232A (Homo sapiens, UniProt P46063) | fluorescence anisotropy | double-stranded DNA | Mg2+ 5 mM, without ADPNP | – | Kd | 173 ± 29 nM |
| TGAATGAATGAA (dsDNA) | Fibroin-modulator-binding protein-1 | ITC | double-stranded DNA, one strand shown | – | – | Kd | 673 ± 31.6 nM |
| CTCAGGAATTCCTATACAGTAATGTGGAGCTCAGTTCAAGTCAATCGGTCC (dsDNA; 5'-amino-C6 primer) | SPT15/TOA1/TOA2/SUA7 1-240; 1-286; 1-122; 1-345 | array | double-stranded DNA, one strand shown | TBP:TFIIA:TFIIB ternary complex | – | Kd | 2.26 ± 0.56 nM |
| GGTAACTTAGCGTCTCGTTGTGATTAAGTTTGACGAGGAATGGAATGCGATGCGCATAACG (dsDNA) | allR full length assumed | BLI | double-stranded DNA, one strand shown | – | – | Kd | 1540 nM |
| CTGCTGGAAACGCCGCGGTCGTAGTAAGACCGCGGCGTTTCCAGCAG (DNA; hairpin, 20 bp stem, 7 nt loop) | EWSR1 1-656 (Homo sapiens, UniProt Q01844) | EMSA | folded DNA | – | – | Kd | 236 ± 5 nM |
| TAAGACACGATGCGATAAAATCTG (dsDNA) | CGAS 1-522 K394E (Homo sapiens, UniProt Q8N884) | fluorescence anisotropy | double-stranded DNA, one strand shown | – | – | Kd | 194 ± 14.7 nM |
| DNA 1 CACTGGCCGTCTTACGGTCGCTCTGCTCGACG / DNA 2 CGACCGTAAGACGGCCAGTG (dsDNA; 20 bp, 3' 12 nt overhang) | RECQL 63-592 M199A (Bos taurus, UniProt A0JN36) | fluorescence anisotropy | double-stranded DNA | with: Mg2+ 3 mM | – | Kd | 5.8 ± 1.4 nM |
| AGGGAGGGAGGG (dsDNA) | Fibroin-modulator-binding protein-1 | ITC | double-stranded DNA, one strand shown | – | – | Kd | 15300 nM |
| colistin | Morganella morganii | broth microdilution | clinical isolate RKI-No 659/13 | – | – | MIC | > 64 µg/mL |
| Teicoplanin | – | – | QC solution | 13 months, -40 °C, low QC level | – | recovery | 93% |
| RNA 1 UAAGACACGAUGCGAUAAAAUCUG / RNA 2 CAGAUUUUAUCGCAUCGUGUCUUA (dsRNA) | CGAS 161-522 K394E (Homo sapiens, UniProt Q8N884) | fluorescence anisotropy | double-stranded RNA | – | – | Kd | 798 ± 64 nM |
| GGAAGTGACGTACGTCGTGCACACGTGGTCCGGCGTCAAGTCAATCGGTCC (dsDNA; 5'-amino-C6 primer) | SPT15/TOA1/TOA2/SUA7 1-240; 1-286; 1-122; 1-345 | array | double-stranded DNA, one strand shown | TBP:TFIIA:TFIIB ternary complex | – | Kd | 2.25 ± 0.64 nM |
| ATTTATATTATTTATTCATATTTATATTTA (ssDNA) | APOBEC3F 1-185 (Homo sapiens, UniProt Q8IUX4) | EMSA | single-stranded DNA | – | – | Kd | 146 ± 4.7 nM |
| GTTCCTGAAGGGGGGGCTATAAACGGGGGTGGGGGTCAAGTCAATCGGTCC (dsDNA; 5'-amino-C6 primer) | SPT15/TOA1/TOA2/SUA7 1-240; 1-286; 1-122; 1-345 | array | double-stranded DNA, one strand shown | TBP:TFIIA:TFIIB ternary complex | – | Kd | 1.79 ± 0.18 nM |
| GGAAGGAAGGAA (dsDNA) | Fibroin-modulator-binding protein-1 | ITC | double-stranded DNA, one strand shown | – | – | Kd | 6960 nM |
| TCCTGAAGGGACGCCTATAAAAGGTCCTATCGTCGTCAAGTCAATCGGTCC (dsDNA; 5'-amino-C6 primer) | SPT15/TOA1/TOA2/SUA7 1-240; 1-286; 1-122; 1-345 | array | double-stranded DNA, one strand shown | TBP:TFIIA:TFIIB ternary complex | – | Kd | 4.01 ± 1.37 nM |
| VMRLQSETSV | human SCRIB PDZ3-4 tandem (MBP fusion) | automated holdup | peptide, crude extract | concentration not given, uncorrected, unit not given | baseline: biotin control resin, higher = stronger binding | binding intensity | 0.811 |

| Substance | target or system | assay | test system | conditions | scale | endpoint | value |
| --- | --- | --- | --- | --- | --- | --- | --- |
| AGTAAGTAAGTA (dsDNA) | Fibroin-modulator-binding protein-1 | ITC | double-stranded DNA, one strand shown | – | – | Kd | 6050 nM |
| DNA 1 TGGGTGGGTAGGGTGGGTAGGGGAGGAT / DNA 2 ATCCTCCCCTA (DNA; intramolecular parallel G4, 5' overhang, 11-bp duplex) | REV1 330-833 K388N (Homo sapiens, UniProt Q9UBZ9) | FP | folded DNA | KCl 100 mM | – | Kd | 3.3 ± 1 nM |
| CAAAATATGTCATCTCTGGCGGAAAAGTTTTCCACTGACAACGCGGGCATTGCCTACTTAA (dsDNA) | allR full length assumed | BLI | double-stranded DNA, one strand shown | – | – | Kd | 53.1 nM |
| TGGATGGATGGA (dsDNA) | Fibroin-modulator-binding protein-1 | ITC | double-stranded DNA, one strand shown | – | – | Kd | 1130 ± 59.6 nM |
| 11-deoxycorticosterone | human CYP11B2 | stopped-flow kinetic modelling | – | 4-state closed model, with: equimolar adrenodoxin | – | Kd | 7410 nM |
| GSGAGKETYY | human MAGI1-3/6 PDZ construct (MBP fusion) | surface plasmon resonance | peptide | concentration not given | higher = stronger binding | normalised SPR binding response | 0 normalised RU |
| CGCAATTAGATAATTAGCCAATTAGCGAATTAGCTAATTAGGCAATTAGGGAATTCTCCGGCGGTATGAC (dsDNA) | YAP1 full length assumed (Saccharomyces cerevisiae, UniProt P19880) | MITOMI | double-stranded DNA, one strand shown | not purified | – | Kd | 1600 ± 200 nM |
| AAGTAAGTAAGT (dsDNA) | Fibroin-modulator-binding protein-1 | ITC | double-stranded DNA, one strand shown | – | – | Kd | 5140 ± 921 nM |
| DNA 1 GCCGGGCCGGCCGGCCGGCCCCCGGGGCCCGGCGCTCAATTCAATCGGTCC / DNA 2 GGACCGATTGACTTGAGCGCCGGGCCCCGGGGGCCGGCCGGCCGGCCCGGC (dsDNA; blunt; C:T mismatch; 5'-amino-C6 primer) | SPT15/TOA1/TOA2/SUA7 1-240; 1-286; 1-122; 1-345 | array | double-stranded DNA | TBP:TFIIA:TFIIB ternary complex | – | Kd | 2.87 ± 0.33 nM |
| BzATP | P2X purinoceptor 7 (P2rx7, Rattus norvegicus, UniProt Q64663, Q143A) | ion current, agonist, two-electrode voltage clamp | Xenopus oocytes | 0.41 µM | – | normalized current | 0.063 and 0.0135 and 0.023 |
| GATGGATGGATG (dsDNA) | Fibroin-modulator-binding protein-1 | ITC | double-stranded DNA, one strand shown | – | – | Kd | 2050 ± 188 nM |
| ATGATGTCCTTTTCCAAAAACGCCACTCCTAGAGCTCAAGTCAATCGGTCC (dsDNA; 5'-amino-C6 primer) | SPT15/TOA1/TOA2/SUA7 1-240; 1-286; 1-122; 1-345 | array | double-stranded DNA, one strand shown | TBP:TFIIA:TFIIB ternary complex | – | Kd | 5.7 ± 2.2 nM |
| GGCCGGCCGGCC (dsDNA) | Fibroin-modulator-binding protein-1 | ITC | double-stranded DNA, one strand shown | – | – | Kd | 2210 ± 349 nM |
| ACCAGCCCATATAAATGTCACTGTGCCTCTAACTCTCAAGTCAATCGGTCC (dsDNA; 5'-amino-C6 primer) | SPT15/TOA1/TOA2/SUA7 1-240; 1-286; 1-122; 1-345 | array | double-stranded DNA, one strand shown | TBP:TFIIA:TFIIB ternary complex | – | Kd | 3 ± 0.43 nM |
| Peginesatide | UT7/EPO | RT-qPCR, item: EGR3 | – | concentration not given, 90 min, normalized to HPRT1 | baseline: vehicle | mRNA level | 20 fold |
| GGGGGCTATAAAAGGGGGTGGGGGCGCGTTCGTCCTCAAGTCAATCGGTCC (dsDNA; 5'-amino-C6 primer) | SPT15/TOA1/TOA2/SUA7 1-240; 1-286; 1-122; 1-345 | array | double-stranded DNA, one strand shown | TBP:TFIIA:TFIIB ternary complex | – | Kd | 10.4 ± 7.28 nM |
| TTTTTTTTTTTTTTTTTTTTTTTTTTTTTTTTTTTTTTTTTTTTTTTTTTTTTTTTTTTTTTTTTTTTTT (ssDNA) | RAD51 full length assumed Y253K (Saccharomyces cerevisiae, UniProt P25454) | fluorescence anisotropy | single-stranded DNA | apparent, Hill fit, with: ATP | – | Kd | 710 ± 70 nM |

For quick reference, copied from above:
| Substance | target or system | assay | test system | conditions | scale | endpoint | value |
| --- | --- | --- | --- | --- | --- | --- | --- |
| BzATP | P2X purinoceptor 7 (P2rx7, Rattus norvegicus, UniProt Q64663, Q143A) | ion current, agonist, two-electrode voltage clamp | Xenopus oocytes | 0.41 µM | – | normalized current | 0.063 and 0.0135 and 0.023 |
| GATGGATGGATG (dsDNA) | Fibroin-modulator-binding protein-1 | ITC | double-stranded DNA, one strand shown | – | – | Kd | 2050 ± 188 nM |
| ATGATGTCCTTTTCCAAAAACGCCACTCCTAGAGCTCAAGTCAATCGGTCC (dsDNA; 5'-amino-C6 primer) | SPT15/TOA1/TOA2/SUA7 1-240; 1-286; 1-122; 1-345 | array | double-stranded DNA, one strand shown | TBP:TFIIA:TFIIB ternary complex | – | Kd | 5.7 ± 2.2 nM |
